Experimental data pooled from the literature.
Every numbered part comes from another study and shows a few of its results, in no order.

Series 1
Target: RING finger protein unkempt homolog, zinc fingers 1-6, GST-SBP tag (UNK, Homo sapiens, UniProt Q9C0B0, residues 30-357)
Technique: RNA Bind-n-Seq
Molecule type: RNA
Sample: in vitro
Concentration: not given
Notes: RNA with constant flanks, human and mouse sites, ends assumed
Reference: input RNA pool
Direction: higher = stronger binding
Measurement: bound/input enrichment
Residues (chain): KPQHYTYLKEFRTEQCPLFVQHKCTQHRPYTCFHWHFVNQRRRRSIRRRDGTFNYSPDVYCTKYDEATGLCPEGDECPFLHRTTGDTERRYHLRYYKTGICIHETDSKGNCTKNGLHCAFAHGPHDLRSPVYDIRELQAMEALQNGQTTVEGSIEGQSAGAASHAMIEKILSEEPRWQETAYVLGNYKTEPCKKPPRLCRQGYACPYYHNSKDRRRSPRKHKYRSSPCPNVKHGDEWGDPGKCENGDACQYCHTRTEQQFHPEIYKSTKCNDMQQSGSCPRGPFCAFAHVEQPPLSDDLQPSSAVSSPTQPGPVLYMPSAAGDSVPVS
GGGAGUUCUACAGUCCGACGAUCGUCUCAUCUGUAUGCAUCUUAUGCAUGUGAUUCAAUAGACUAGAUCGAUUCUGUGUGGUUUAUCAUAGUAGAUACACAAACCAGUCUUUAUUUUUUACUUAAGAAAAUAUAUAAGUGGAACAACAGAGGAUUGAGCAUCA: 0.468 ratio
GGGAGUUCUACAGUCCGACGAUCAUAUAUUGUAACAGAAUGUAUAAAUAUUUUUGAUAAAACAGUCUAUAUUUUAUAAAAAGUUAUUAUAACACUAAAGCUGUACCUCAAAAGUCUCACAAAUAAUUUGAUCAAAUGCUCUACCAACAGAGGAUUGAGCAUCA: 0.214 ratio
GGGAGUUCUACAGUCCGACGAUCCUGUUGGGGUGGGUAUAAAAGAUGGGGUCUGUAAAAUCUUUCUUUCUUAGAAAUUUAUUUCCUAGUUCUGUAGAAAUGGUUGUAUUAGAUGUUCUCUAUCAUUUAAUAAUAUACUUGUGGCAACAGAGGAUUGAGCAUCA: 2.69 ratio
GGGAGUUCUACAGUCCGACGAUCGAAUAUAGUCACUCAAUUAAAAUUAUUUAGAUAAAAUUAUUGUUUAUGUUUUCUUUCAAGCAAUCUAUCCUAUUUUUAUCCAUUUGCAAAUGCCAGUUUUGUGUGGUUUCUUAGCAUAUCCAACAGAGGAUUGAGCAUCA: 19.5 ratio
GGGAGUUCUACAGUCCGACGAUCAAAAGACGACGAACUGGAGGCUCUCUGAGAGGUAACCCUUCCUCAAGCCAGGUAGAUGAAGAACAGAUGAAUCGUGUGGUAGAGGAGGAACAGCAACAGCAACUCAGACAACAAGAGGAGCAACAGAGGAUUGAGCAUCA: 0.0957 ratio
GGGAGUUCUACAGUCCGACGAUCGCCAAUAUCAAACGAGAACAGGGAAACAUUGAAGAGGCAGUUCGCUUGUAUCGUAAAGCAUUAGAAGUCUUCCCAGAGUUUGCUGCUGCCCAUUCAAAUUUAGCAAGUGUACUGCAGCAGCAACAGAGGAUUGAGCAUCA: 1.14 ratio
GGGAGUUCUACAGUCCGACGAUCAUGGCUUGGACGAUAUUAAGGACCGCUCGACGCUGGGAGAGAAACUGGGGGGCAGUGUUGUAGUUUCCCUUGAAGGAAAGCCACUAUAAAAUAAUAGCCAAGUGCCAUUUGAUCUUAAGGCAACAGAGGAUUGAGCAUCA: 0.231 ratio
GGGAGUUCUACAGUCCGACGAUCGUUUCUAUAGUGCUGUUGGGGACUGCUUUGCUUCUGUGUCCUACCCAGGUUUGUCUACACACUCGGACAGUACUUUACACUAUAUAGUUCAGUUCUCAGACUUGUCUCUAUCUUGCCUCUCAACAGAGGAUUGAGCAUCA: 0.362 ratio
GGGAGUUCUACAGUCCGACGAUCUUGUUGAAGAACCAGCUGUCUGAUCCUGAUAUAAAGGAUGACCAGAUCAUUAACUGGCUACUAGAAUUUCGUUCCUCUGUCAUGUACUUGACAAAAGACUUUGAGCAACUUAUAAACAUCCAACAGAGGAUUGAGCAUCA: 0.213 ratio
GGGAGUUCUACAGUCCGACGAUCUUUGAAAAAUCCAAACUUACUUUCAGUUGUCUUGGAGGAAGCGAUAAUUUUAAGCAUUUAAAUGAAAUUGAUCUUUUUCAUUGUAUCGAUCCAAAUGAUUCCAAGCAUAAAAGAACAGACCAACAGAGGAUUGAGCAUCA: 0.281 ratio
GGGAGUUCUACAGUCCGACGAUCUCAAGAAGCAUCGUGUCUGGCGUUGUGGGGAUGAACUUUUUGUUUUGUUUCUUCCUUUUUUAGUUCUUCAAAGAUAGGGAGGGAAGGGGGAACAUGAGCCUUUGUUGCUAUCAAUCCAAGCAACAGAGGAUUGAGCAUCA: 0.117 ratio

Series 2
Target: Histone acetyltransferase KAT6A, both winged helices, GST fusion (KAT6A, Homo sapiens, UniProt Q92794, residues 1-181)
Technique: protein binding microarray
Molecule type: double-stranded DNA, one strand shown
Sample: in vitro
Concentration: not given
Notes: 8-mer, flanks averaged, mean of 2 arrays, mostly near background
Reference: not given
Direction: higher = stronger binding
Measurement: E-score
Residues (chain): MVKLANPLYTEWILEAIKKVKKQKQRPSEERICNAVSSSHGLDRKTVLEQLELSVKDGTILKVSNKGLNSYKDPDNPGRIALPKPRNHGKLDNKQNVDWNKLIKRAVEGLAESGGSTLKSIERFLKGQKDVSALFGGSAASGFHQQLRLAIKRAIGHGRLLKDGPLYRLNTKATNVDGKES
GTCTACTA: -0.2
TATCTGGA: -0.291
CCGTTGAC: 0.187
CAAAAGTC: -0.0402
CACTCCAC: -0.239
CAAGACTC: -0.0779
ACCGAGTC: -0.0729
ATGGGCAG: 0.00207
CTGAATCA: -0.151
ACGTGTCA: -0.0428
CTAACGTC: 0.0461
CCCTGGAC: -0.127
TAATCCCA: -0.0893
TACAACCA: -0.127
GGTCATGA: 0.0145
GTTACAGA: -0.129
CGTCATTA: -0.00789
CGGTTTGA: 0.145
CCGTCGCG: 0.356
GTGTGCCA: -0.0317
CGGCGTCC: 0.27
AAAGAAAG: -0.159
AGGTTGTA: -0.0381
AACCCCGG: 0.0246
GATGCGGA: 0.206

Series 3
Target: Protein max, full length (MAX, Homo sapiens, UniProt P61244-2, residues 1-151)
Technique: protein-binding microarray
Molecule type: double-stranded DNA, one strand shown
Sample: in vitro
Concentration: not given
Notes: k-mer, scored over probes, only values ≥0.25
Direction: higher = stronger binding
Measurement: E-score
CGTGCAAA: 0.317
CATGTGGA: 0.471
CGTGTACC: 0.363
CGTGTGGA: 0.306
CACGCCAC: 0.388
AGTATGGC: 0.261
AATGTGGA: 0.28
AGGCGCAC: 0.28
CATATGTC: 0.301
AGACATGC: 0.396
CCATGCTA: 0.36
CATGATCC: 0.257
CCCATGCC: 0.371
GTGCATGA: 0.341
CACGCTAG: 0.37
ATACCATG: 0.261
ACACATGG: 0.477
CATGTTTC: 0.322
CATGACAC: 0.357
GCGTGAAA: 0.284
GTGTGCTA: 0.278
CCACCTGA: 0.372

Series 4
Target: RNA binding protein fox-1 homolog 2, RRM domain, GST-SBP tag (RBFOX2, Homo sapiens, UniProt O43251-10, residues 100-194)
Technique: RNA Bind-n-Seq
Molecule type: RNA
Sample: in vitro
Concentration: 365 nM
Notes: natural RNA segment, single round, ends assumed
Reference: no-protein control
Direction: higher = stronger binding
Measurement: RBNS enrichment (R)
Construct (chain): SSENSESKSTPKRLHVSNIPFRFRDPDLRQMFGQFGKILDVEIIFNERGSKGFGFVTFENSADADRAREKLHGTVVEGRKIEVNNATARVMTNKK
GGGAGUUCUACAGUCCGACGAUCUACAUAAAAGGAAGGUAUUGGCUGAACUGAAUAGAGGUCUUGAUCUUUGGAAUGCAUGCCAGUAAUGUAUUUUACAGUACAUGUUUAUUAUGUUCAAUAUUUGUAUUUGUUGGAAUUCUCGGGUGCCAA: 0.876
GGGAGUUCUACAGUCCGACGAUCACCCUUCUGGCCUUUUAGCGUCUUUGAAGGAGACCAGACAUGAGUGAAUACCUAGGAGAGUGUCAGCAUGUUUCUGGAAAAUUGGCAGAGACCAAGCCCUGCUGCAGAUUUGGAAUUCUCGGGUGCCAA: 7.1
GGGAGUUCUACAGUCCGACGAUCACCCAGUAGCCCAUAGCACAAAUCUUGUGAACAUCUGAUAUGUUUUCAAGUGGCUACCUAGGAUAAGGUUCAUCAUUAGUACCCCCACCCCCACCCCACCGCCAUCUAGAUGGAAUUCUCGGGUGCCAA: 0.326
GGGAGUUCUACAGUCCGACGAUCGAACAAUGCCAGGGCCCAGGAGGACCGCCUGCCCUGCCUGGGCCUUGGCUGGGCCUCUGGUUCUGACACUUUCUGCUGGAAGCUGUCAGGCUGGGACAGGCUUUGAUUUUUGGAAUUCUCGGGUGCCAA: 0.883
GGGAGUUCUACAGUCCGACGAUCCUAGCUGCCAUGUGGGGUCCACCUCUUGCCUCAGCAACUUUCCAGGACCUUUGAACUUGCCAGAUACCUUAAGUGUCUUCCCAGAAUCUGCCCACCUGUCAUCAGCCCCCUGGAAUUCUCGGGUGCCAA: 0.463
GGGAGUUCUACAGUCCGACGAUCACAUGGUCACAUUAUUCCGUUCACAUUGGUCCUUGUGAGAACCUCACAGUCUGGAGGCGGCUGCUUUUGUACCUUCCUGCCUGCUACUAAUUCAGGGUCUCAUUUGGAACUGGAAUUCUCGGGUGCCAA: 0.253
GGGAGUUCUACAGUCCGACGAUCUCAGUUGAGGCCAGGGUGGUCAGGGUGCAGAAUAAAUGCCAUCGAGCCUGUGGCUGGCCCUCUGCUGCUGUUCUCUCCCUCCAACCUGGCUGUUUCUUGCGGGGCAAGGGUGGAAUUCUCGGGUGCCAA: 0.846
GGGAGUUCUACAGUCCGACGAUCUAUGUUUGUAGGUCUCAUGUGCUCAGGGCUAUGAAGUAGGCUGUGCAGGUGACAGCACCCUGCUAGGAAGCUGUGUGUGUCCUGCCUUUCCUCCUGGAAUAUGUACGGAUUGGAAUUCUCGGGUGCCAA: 0.315
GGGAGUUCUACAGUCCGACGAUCCAGUUUUUCCUUCGGGGUAUACUAUUUUAGAUACACCUACUUCACAGGAGUACUGGAGGGAUUUGCAAGCUAACGGGCCAAAUGCUUCCAUAGGAAUAAGGCAUGCCCAGUGGAAUUCUCGGGUGCCAA: 2.44
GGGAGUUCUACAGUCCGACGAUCCUCCACUCCCACUCUGCCAGACACCCUGACACCCACCCAGGCUUUGAAGAGCAUGGAGGGGGAGCCUCAGAGCUGACAGUCCUGCUUAGAGCCCUUAAAAAGACUUGAAAUGGAAUUCUCGGGUGCCAA: 0.27
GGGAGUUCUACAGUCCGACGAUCCAAGACUGACUAGCUCUCUUUAGCCCUCUGGUGAUUCCUUCACUAUCAUGUCAACCUGGCUUAUCAUUGUGAGCCCCUGAGGUCUUUCGGGUUCUCUGUAAUACUCAAGUUGGAAUUCUCGGGUGCCAA: 0.281
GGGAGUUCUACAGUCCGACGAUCUAAAGGCUUUGACCCCACAGCCUCCCCCUUCUGCCAUAGUGUCACUGGGGGCCAGUGCUCCCUCCACUCCACCACCCUCCCAGGGUGACAUUUAAGGGCAGCAACCAGAGUGGAAUUCUCGGGUGCCAA: 0.51
